Experimental data collected from several papers.
Protocols differ between the studies behind these lines. Values joined by “and” are separate records of one study, mostly repeats; a detail may differ. ± gives the spread as reported.

For `COC1OC(C)C(OC2OC(C)C(OS(=O)(=O)O)C(OC3OC(C)C(OC4OC(C)C(OS(=O)(=O)O)C(OC5OC(C)C(OC6OC(C)C(OS(=O)(=O)O)C(OC7OC(C)C(OC8OC(C)C(OS(=O)(=O)O)C(OC9OC(C)C(OC%10OC(C)C(OS(=O)(=O)O)C(OS(=O)(=O)O)C%10O)C(OS(=O)(=O)O)C9O)C8O)C(OS(=O)(=O)O)C7O)C6O)C(OS(=O)(=O)O)C5O)C4O)C(OS(=O)(=O)O)C3O)C2O)C(OS(=O)(=O)O)C1O` (centres unmarked), the prothrombin time was 14.7 ± 0.2 s (human plasma; 128 µg/mL).
`COc1ccc(NC(=O)c2ccc3[nH]c(-c4ccc(N(C)C)cc4)nc3c2)cn1` gave a tumour volume of 2260 mm3 and 1600 mm3 and 996 mm3 and 1180 mm3 and 1860 mm3 (CT26, BALB/c nude mice, subcutaneous graft; dose not given, day 11).
`CC(=O)[O-].O.O.O.O.[Mn+2].[O-]c1ccc(Br)cc1C=NCCN1CCOCC1` gave an inhibition of 34.9% (DPPH radical scavenging; 160 µM).
`O=C(NS(=O)(=O)c1cccs1)c1cc2ccccc2n1Cc1ccc(Br)c2ccccc12` has a serum creatinine of 32.4 µM and 43.8 µM and 32.6 µM and 30.2 µM and 38 µM and 35.8 µM (mouse, chronic hyperuricaemia model, serum; dose not given).
`CN1CCC[C@]1(C)/C=C/S(=O)(=O)NC(=O)Nc1c2c(cc3c1CCC3)CCC2` has an IL-1β inhibition of 98% (human, whole blood ex vivo; 100 mg twice daily, day 1, 12 h, multiple ascending dose, together with: LPS and ATP).
`COC1OC(C)C(OS(=O)(=O)O)C(OC2OC(C)C(OS(=O)(=O)O)C(OC3OC(C)C(OS(=O)(=O)O)C(OC4OC(C)C(OS(=O)(=O)O)C(OC5OC(C)C(OS(=O)(=O)O)C(OC6OC(C)C(OS(=O)(=O)O)C(OC7OC(C)C(OS(=O)(=O)O)C(OC8OC(C)C(OS(=O)(=O)O)C(OS(=O)(=O)O)C8O)C7O)C6O)C5O)C4O)C3O)C2O)C1O` (centres unmarked): “prothrombin time prolongation” 0.98 fold (human plasma; 128 µg/mL; baseline: control).
`O=C1/C(=C/c2cc(Cl)c(O)c(Cl)c2)CNC/C1=C\c1cc(Cl)c(O)c(Cl)c1` has an IC50 of 79.6 mg/L (ABTS scavenging; 20 min).
`CC(C)(C)NCC(SS(=O)(=O)O)c1ccccc1` (centres unmarked) — result for “liver weight decrease”: 15% (Schistosoma mansoni-infected mice; 100 mg/kg single, day 42, perfusion day 56; baseline: vehicle).
`COC1OC(C)C(OS(=O)(=O)O)C(OC2OC(C)C(OS(=O)(=O)O)C(OC3OC(C)C(OS(=O)(=O)O)C(OC4OC(C)C(OS(=O)(=O)O)C(OC5OC(C)C(OS(=O)(=O)O)C(OS(=O)(=O)O)C5OS(=O)(=O)O)C4OS(=O)(=O)O)C3OS(=O)(=O)O)C2OS(=O)(=O)O)C1OS(=O)(=O)O` (centres unmarked) — result for “prothrombin time prolongation”: 1 fold (human plasma; 128 µg/mL; baseline: control).
`CCN(C(=O)c1cc(F)ccc1Oc1nncnc1N1CCC2(C1)CN([C@H](CCCN(C)CCOC)C(C)C)C2)C(C)C` — result for “increase in life span”: 108% (mouse, sample A AML PDX model; 30 mg/kg).
`COc1ccc(C2NCCc3cc(O)c(O)cc32)cc1` (centres unmarked) gave an IC50 of 5.53 µM (ABTS scavenging; 10 min, dark).
Under “amyloid plaque load”, `CCCCCCCCCCCCCCCC(=O)OCC(CSC[C@H](N)C(=O)N[C@@H](CO)C(=O)N[C@@H](CCCCN)C(=O)N[C@@H](CCCCN)C(=O)N[C@@H](CCCCN)C(=O)N[C@@H](CCCCN)C(=O)NCCCCCC(=O)N[C@@H](CCCCN)C(=O)N[C@@H](CC(C)C)C(=O)N[C@H](C(=O)N[C@@H](Cc1ccccc1)C(=O)N[C@@H](Cc1ccccc1)C(=O)N[C@@H](Cc1ccc2ccccc2c1)C(=O)O)C(C)C)OC(=O)CCCCCCCCCCCCCCC` (some centres unmarked) is recorded as 2.29e-05 and 0.000524 and 0.0105 and 7.49e-05 and 0.448 (thioflavin S staining; APP/PS1 transgenic mouse, hippocampus; intrahippocampal, unit not given; baseline: injected over adjacent side).
`COC1OC(C)C(O)C(OC2OC(C)C(O)C(OC3OC(C)C(O)C(OC4OC(C)C(O)C(OC5OC(C)C(O)C(OC6OC(C)C(O)C(OC7OC(C)C(O)C(OC8OC(C)C(O)C(OS(=O)(=O)O)C8OS(=O)(=O)O)C7OS(=O)(=O)O)C6OS(=O)(=O)O)C5OS(=O)(=O)O)C4OS(=O)(=O)O)C3OS(=O)(=O)O)C2OS(=O)(=O)O)C1OS(=O)(=O)O` (centres unmarked): “prothrombin time prolongation” 0.98 fold (human plasma; 128 µg/mL; baseline: control).
`Cc1cccc(C)c1CNc1cc(C(=O)N2CCC2)cn2c(C)c(C)nc12` has an ED50 of 0.53 mg/kg (oesophageal lesions; rat reflux oesophagitis; oral, single dose).
`COC1OC(C)C(O)C(OC2OC(C)C(O)C(OC3OC(C)C(O)C(OC4OC(C)C(O)C(OC5OC(C)C(O)C(OC6OC(C)C(O)C(OS(=O)(=O)O)C6OS(=O)(=O)O)C5OS(=O)(=O)O)C4OS(=O)(=O)O)C3OS(=O)(=O)O)C2OS(=O)(=O)O)C1OS(=O)(=O)O` (centres unmarked) has a prothrombin time of 14.8 ± 0.3 s (human plasma; 128 µg/mL).
For `CCCCC(CSS(=O)(=O)O)NCC(C)C` (centres unmarked), “liver weight decrease” read 19% (Swiss Webster mice, Schistosoma mansoni infected; 100 mg/kg; baseline: vehicle control).
Under “lung tissue TNF-alpha level”, `CC[C@H](C)[C@H](NC(=O)[C@@H](NC(=O)c1ccnc(Cl)c1Cl)C(C)(C)C)C(=O)N[C@H](C(=O)N[C@H](C(=O)N[C@H](C(=O)N[C@@H](CCC(N)=O)C(=O)N[C@@H](Cc1c[nH]cn1)C(=O)N[C@H](CC(C)C)C(=O)N[C@@H](CO)C(=O)NCCOCCOCC(=O)N[C@@H](CCCCNC(=O)CC[C@@H]1NC(=O)[C@@H](CCCNC(=N)N)NC(=O)[C@H](CCCNC(=N)N)NC(=O)[C@@H](CCCNC(=N)N)NC(=O)[C@H](CCCNC(=N)N)NC(=O)[C@H](Cc2ccc3ccccc3c2)NC(=O)[C@@H](Cc2ccccc2)NC1=O)C(N)=O)[C@@H](C)O)[C@@H](C)CC)C(C)(C)O` is recorded as “inhibited” (mouse, acute lung injury, LPS-induced; intravenous, 5 mg/kg, together with: LPS 10 mg/kg i.p.).
For `COC1CN([C@H]2CC[C@H]([C@@]3(C)Oc4c(Cl)cc(C(=O)NCc5c(SC)cc(C)[nH]c5=O)c(C)c4O3)CC2)C1`, “log2 fold change” read 0.516 (RNA-seq, refers to: POLN mouse homolog; mouse, HT-1376 xenograft, whole blood; dose not given; baseline: vehicle).
For `COC1OC(C)C(OS(=O)(=O)O)C(OC2OC(C)C(OS(=O)(=O)O)C(OC3OC(C)C(OS(=O)(=O)O)C(OC4OC(C)C(OS(=O)(=O)O)C(OC5OC(C)C(OS(=O)(=O)O)C(OC6OC(C)C(OS(=O)(=O)O)C(OC7OC(C)C(OS(=O)(=O)O)C(OC8OC(C)C(OS(=O)(=O)O)C(OC9OC(C)C(OS(=O)(=O)O)C(OC%10OC(C)C(OS(=O)(=O)O)C(OC%11OC(C)C(OS(=O)(=O)O)C(OC%12OC(C)C(OS(=O)(=O)O)C(OS(=O)(=O)O)C%12O)C%11O)C%10O)C9O)C8O)C7O)C6O)C5O)C4O)C3O)C2O)C1O` (centres unmarked), the prothrombin time was 14.6 ± 0.2 s (human plasma; 128 µg/mL).
For `CC(C)n1nc(-c2cc3cc(O)ccc3[nH]2)c2c(N)ncnc21`, the inhibition was 29.8% (AlphaScreen signal, AlphaScreen counter screen; His6 peptide without bromodomain; 50 µM, assay interference check).
For `CC(C)C[C@H](NC(=O)[C@H](CC(=O)O)NC(=O)CNC(=O)[C@@H](N)CCCNC(=N)N)C(=O)N[C@@H](C)C(=O)N[C@H](C(=O)N[C@@H](CC(C)C)C(=O)N[C@@H](CCCNC(=N)N)C(=O)N[C@@H](CCC(N)=O)C(=O)N[C@@H](CC(C)C)C(=O)N[C@@H](C)C(=O)N[C@@H](CCC(N)=O)C(=O)N[C@@H](CCC(=O)O)C(=O)N[C@@H](CC(=O)O)C(=O)NCC(=O)N[C@H](C(=O)N[C@H](C(=O)NCC(=O)N[C@H](C(=O)N[C@@H](CCCNC(=N)N)C(=O)NCCOCCOCCOCCOCCOCCOCCOCCOCCOCCOCCOCCOCCC(=O)N[C@@H](CS)C(N)=O)C(C)C)C(C)C)C(C)C)[C@@H](C)O`, “fluorescence signal ratio” read 1.4 and 1.5 and 1.6 (ex vivo NIR imaging; NOD/SCID mice, xenograft, H2009 xenograft; intravenous, 30 µg, 24 h; baseline: liver).
`COC1OC(C)C(OC2OC(C)C(OS(=O)(=O)O)C(OC3OC(C)C(OC4OC(C)C(OS(=O)(=O)O)C(OS(=O)(=O)O)C4OS(=O)(=O)O)C(OS(=O)(=O)O)C3OS(=O)(=O)O)C2OS(=O)(=O)O)C(OS(=O)(=O)O)C1OS(=O)(=O)O` (centres unmarked): “prothrombin time prolongation” 1 fold (human plasma; 128 µg/mL; baseline: control).
`Nc1nc2cc(CC[C@H]3C[C@@H](n4ccc5c(N)ncnc54)[C@H](O)[C@@H]3O)ccc2cc1Br`: “tumour growth inhibition” 67.4% (mouse, NCI-H1048 xenograft; oral, 10 mg/kg, day 28, 7 days on/7 off, 2 cycles).
For `COC1OC(C)C(OS(=O)(=O)O)C(OC2OC(C)C(OS(=O)(=O)O)C(OC3OC(C)C(OS(=O)(=O)O)C(OC4OC(C)C(OS(=O)(=O)O)C(OC5OC(C)C(OS(=O)(=O)O)C(OC6OC(C)C(OS(=O)(=O)O)C(OC7OC(C)C(OS(=O)(=O)O)C(OC8OC(C)C(OS(=O)(=O)O)C(OC9OC(C)C(OS(=O)(=O)O)C(OC%10OC(C)C(OS(=O)(=O)O)C(OS(=O)(=O)O)C%10O)C9O)C8O)C7O)C6O)C5O)C4O)C3O)C2O)C1O` (centres unmarked), “prothrombin time prolongation” read 0.98 fold (human plasma; 128 µg/mL; baseline: control).
`CC1(C)CC[C@@]2(CO)C(=C3C=C[C@@H]4[C@@]5(C)CC[C@H](O)[C@@](C)(CO)[C@@H]5CC[C@@]4(C)[C@]3(C)C[C@@H]2O)C1`: “liver to body weight ratio” 0.047% and 0.042% and 0.037% (chronic-plus-binge ethanol-fed mice; intraperitoneal, 50 mg/kg daily, 7 d).
With `COc1cnc2cccc(N3CCc4c(cc(Cn5ccnc5)cc4-c4cn(C)nc4C(F)(F)F)C3=O)c2c1` the tumour volume was 87 mm3 and 153 mm3 and 186 mm3 and 176 mm3 and 166 mm3 (BALB/c nude mice, MV4-11 xenograft; intraperitoneal, 100 mg/kg, day 17).

A few entries again:
`COC1OC(C)C(OS(=O)(=O)O)C(OC2OC(C)C(OS(=O)(=O)O)C(OC3OC(C)C(OS(=O)(=O)O)C(OC4OC(C)C(OS(=O)(=O)O)C(OC5OC(C)C(OS(=O)(=O)O)C(OC6OC(C)C(OS(=O)(=O)O)C(OC7OC(C)C(OS(=O)(=O)O)C(OC8OC(C)C(OS(=O)(=O)O)C(OS(=O)(=O)O)C8O)C7O)C6O)C5O)C4O)C3O)C2O)C1O` (centres unmarked): “prothrombin time prolongation” 0.98 fold (human plasma; 128 µg/mL; baseline: control).
`O=C1/C(=C/c2cc(Cl)c(O)c(Cl)c2)CNC/C1=C\c1cc(Cl)c(O)c(Cl)c1` has an IC50 of 79.6 mg/L (ABTS scavenging; 20 min).
`CC(C)(C)NCC(SS(=O)(=O)O)c1ccccc1` (centres unmarked) — result for “liver weight decrease”: 15% (Schistosoma mansoni-infected mice; 100 mg/kg single, day 42, perfusion day 56; baseline: vehicle).
